Measurements from different studies.
A part holds a random share of what one study measured.

Set 1
Target: TAR DNA-binding protein 43, full length, His tag (TARDBP, Homo sapiens, UniProt Q13148, residues 1-414)
Technique: RNA Bind-n-Seq
Molecule type: RNA
Medium: in vitro
Concentration: 20 nM
Setting: 6-mer, flanks averaged, single round
Added: 150 mM KCl
Relative to: input library
Direction: higher = stronger binding
Sequence	6-mer enrichment (R)
UAUUAC	0.584
CCGACC	0.656
CGACGA	0.844
GGUGAC	1.42
UAAAUA	0.674
AGCUAU	0.614
AAGUGC	0.811
CCUUCC	0.585

Set 2
Target: Prothrombin, mature alpha-thrombin (F2, Homo sapiens, UniProt P00734)
Technique: aptamer microarray, sandwich
Molecule type: DNA with 2'F-ANA
Medium: in vitro
Concentration: 200 nM
Setting: whole 15-mer aptamer, many near background
Added: Cy3 exosite-II aptamer, 400 nM
Direction: higher = stronger binding
Sequence: GGTTGGTGTGGTTGG
Modification	mean fluorescence intensity
2'F-ANA at 1 2 3 5 6 8 9 10 12 15	71.5 a.u.
2'F-ANA at 2 3 5 10 11 12 13 14	51.6 a.u.
2'F-ANA at 1 2 6 9 13 14	52.6 a.u.
2'F-ANA at 1 4 5 6 7 10 14 15	62.6 a.u.
2'F-ANA at 4 5 6 7 9 10 15	97.7 a.u.
2'F-ANA at 2 5 10 11 12 13 14	45.8 a.u.
2'F-ANA at 1 3 6 8 10 11 12 14 15	60.2 a.u.
2'F-ANA at 1 3 5 6 8 10 11 12 13 14	116 a.u.

Set 3
Target: RING finger protein unkempt homolog, zinc fingers 1-6, GST-SBP tag (UNK, Homo sapiens, UniProt Q9C0B0, residues 30-357)
Technique: RNA Bind-n-Seq
Molecule type: RNA
Medium: in vitro
Concentration: not given
Setting: RNA with constant flanks, human-mouse chimeric sites, ends assumed
Relative to: input RNA pool
Direction: higher = stronger binding
All sequences stand within: GGGAGUUCUACAGUCCGACGAUC … CAACAGAGGAUUGAGCAUCA
Target sequence (chain): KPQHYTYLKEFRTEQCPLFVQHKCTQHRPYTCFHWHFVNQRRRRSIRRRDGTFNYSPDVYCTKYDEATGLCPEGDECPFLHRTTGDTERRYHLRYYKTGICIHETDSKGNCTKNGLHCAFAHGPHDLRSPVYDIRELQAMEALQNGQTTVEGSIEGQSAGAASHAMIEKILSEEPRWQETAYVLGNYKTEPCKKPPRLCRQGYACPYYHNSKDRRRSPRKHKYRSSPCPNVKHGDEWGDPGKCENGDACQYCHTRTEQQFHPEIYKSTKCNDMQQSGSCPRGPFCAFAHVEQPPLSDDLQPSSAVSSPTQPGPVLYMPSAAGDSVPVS
Sequence	bound/input enrichment [ratio]
GUGCCCUUCUCGCUGCUGCGGAGCCCGAGCUGGGAACACCCCUUCCGCUGGUACCCUGCACACAGCCGCCUCUUCGAUCAAGCUUUCGGGGUGCCCCGGCUGCCGGAUGAGUGGUCGCAG	0.0691
CGCUUGGAUGAGGCUGGUGUCACAGAUGAAGUGCUAGAUUCUGCCAUGCAAGCCUUCCUUCUGGAGGUUAUCGUUAAACAUGGGGAGCCGGCACCUUAUUUAUGUAACAAAGAUCCGUUU	0.106
UCCUUGGAACCCAGUCAUAUAGGUGACCUGCAAAAAGCAGACACCAGUAGUCAAGGUGCUUUAGUGUUUCUCUCAAAGGACUACGAAAUAGAAAAUCAAAAUCCCCUGGCCUCUCCUACG	2.78
UUUGUAUUUAUGCUAAGCACACGUGCUGGUGGUCUGGGCAUCAAUCUUGCGACUGCUGAUGUAGUCAUUUUAUAUGACUCAGAUUGGAAUCCGCAAGUUGAUCUUCAGGCUAUGGACCGU	0.109
AGAUUCCCCCUCCUGAGACCUCCUCCGAAGUUGGAGUCUCUUACAGAUGCCUCAUCCCCUGUUAGCGUUUUAGUUUGGACCACCCAGCCUUGGACGAUUCCCGCCAAUGAAGCUGUUUGC	1.5
GCAAAGGAUGAUGAGGCGGCAGCUGUUGCCCUUUCCUCUCUCGUUCAUGCUUUGGAUGAGUUAAACAUGGUGGCCAUCGUCCGAUAUGCUUAUGACAAAAGAGCUAAUCCUCAAGUUGGU	0.158
GAACCUGCUCUCUCUGAUGAAGAUGAGGAAGACAAUGAUGAUGUUGAACCCAUUUCUGAAUUUCGAUUUGUGCCCAGUGAUAAGUCAGCAUUGGAGGCGAUGUUCACUGCAAUGUGCGAG	0.237
CACAGAGCAGCACCUACCCCCUCCUCCUUUCCACACCUGCAAACUCUUUUACUUGGGCUGAAUAUUUAGUGUAAUUACAUCUCAGCUUUGAGGGCUCCCUGUGGCAAAUACCCGGAUAAA	1.3

Further values, each from its own experiment
Molecule	target	assay	test system	scale	quantity	result
AALEGLSGF	HLA class I histocompatibility antigen, A alpha chain, allele A*80:01 (Homo sapiens, UniProt P04439)	peptide-MHC binding	peptide	direction not given	z-score of log IC50	0.38

Some of these lines once more (set 1):
Sequence	6-mer enrichment (R)
UAAAUA	0.674
AGCUAU	0.614
